Values quoted from earlier work that unrelated publications cite.
Protocols differ between the studies behind these lines. ± marks the error that the study gave. Values after ≈ are worked out from the molar mass of the structure shown.
lasR: Transcriptional activator protein LasR (lasR, Pseudomonas aeruginosa, UniProt P25084)
UniProt P25084, sequence (whole entry, looked up): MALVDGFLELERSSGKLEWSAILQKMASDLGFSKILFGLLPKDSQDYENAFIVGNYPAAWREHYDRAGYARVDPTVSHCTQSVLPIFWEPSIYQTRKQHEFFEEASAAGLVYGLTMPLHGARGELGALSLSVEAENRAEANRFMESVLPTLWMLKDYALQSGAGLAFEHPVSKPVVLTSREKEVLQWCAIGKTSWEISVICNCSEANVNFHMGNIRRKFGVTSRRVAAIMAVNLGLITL
UniProt P30542, sequence (whole entry, looked up): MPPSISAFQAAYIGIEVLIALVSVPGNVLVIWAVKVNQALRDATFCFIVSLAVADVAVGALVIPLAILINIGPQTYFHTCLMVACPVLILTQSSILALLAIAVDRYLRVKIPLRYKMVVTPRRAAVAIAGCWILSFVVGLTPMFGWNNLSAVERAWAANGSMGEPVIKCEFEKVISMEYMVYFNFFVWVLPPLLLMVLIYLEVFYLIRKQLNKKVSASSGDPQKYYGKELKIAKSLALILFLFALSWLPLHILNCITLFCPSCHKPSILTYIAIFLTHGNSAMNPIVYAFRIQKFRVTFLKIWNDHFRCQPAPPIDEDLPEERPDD
UniProt P06276, sequence (whole entry, looked up): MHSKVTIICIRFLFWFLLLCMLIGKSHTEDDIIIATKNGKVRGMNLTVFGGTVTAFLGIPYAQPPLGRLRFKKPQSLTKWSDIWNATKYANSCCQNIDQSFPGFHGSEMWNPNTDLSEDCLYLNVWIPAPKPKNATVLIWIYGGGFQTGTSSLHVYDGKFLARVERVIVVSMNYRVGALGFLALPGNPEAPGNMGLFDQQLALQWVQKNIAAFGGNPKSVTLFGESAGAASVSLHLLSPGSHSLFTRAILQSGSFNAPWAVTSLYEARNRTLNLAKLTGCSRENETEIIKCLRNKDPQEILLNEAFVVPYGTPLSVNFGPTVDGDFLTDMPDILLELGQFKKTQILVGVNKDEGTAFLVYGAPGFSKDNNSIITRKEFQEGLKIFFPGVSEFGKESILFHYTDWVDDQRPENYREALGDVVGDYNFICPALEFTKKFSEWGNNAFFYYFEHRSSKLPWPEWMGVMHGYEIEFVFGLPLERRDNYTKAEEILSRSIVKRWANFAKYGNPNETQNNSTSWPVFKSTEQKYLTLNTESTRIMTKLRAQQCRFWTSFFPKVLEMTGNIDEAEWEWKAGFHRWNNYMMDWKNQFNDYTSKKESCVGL
UniProt P37353, sequence (whole entry, looked up): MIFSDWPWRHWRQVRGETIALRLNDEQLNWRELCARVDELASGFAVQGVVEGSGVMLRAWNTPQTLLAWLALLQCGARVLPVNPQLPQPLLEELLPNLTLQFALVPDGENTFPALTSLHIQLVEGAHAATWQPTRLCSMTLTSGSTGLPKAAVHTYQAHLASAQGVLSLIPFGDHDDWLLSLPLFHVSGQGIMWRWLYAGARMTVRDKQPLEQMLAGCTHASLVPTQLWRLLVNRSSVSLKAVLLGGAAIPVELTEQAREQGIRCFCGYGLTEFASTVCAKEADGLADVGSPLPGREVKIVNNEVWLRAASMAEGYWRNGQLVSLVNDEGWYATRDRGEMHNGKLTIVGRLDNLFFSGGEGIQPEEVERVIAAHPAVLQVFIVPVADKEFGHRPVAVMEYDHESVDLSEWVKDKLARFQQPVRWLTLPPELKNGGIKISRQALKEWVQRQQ
UniProt P53341, sequence (whole entry, looked up): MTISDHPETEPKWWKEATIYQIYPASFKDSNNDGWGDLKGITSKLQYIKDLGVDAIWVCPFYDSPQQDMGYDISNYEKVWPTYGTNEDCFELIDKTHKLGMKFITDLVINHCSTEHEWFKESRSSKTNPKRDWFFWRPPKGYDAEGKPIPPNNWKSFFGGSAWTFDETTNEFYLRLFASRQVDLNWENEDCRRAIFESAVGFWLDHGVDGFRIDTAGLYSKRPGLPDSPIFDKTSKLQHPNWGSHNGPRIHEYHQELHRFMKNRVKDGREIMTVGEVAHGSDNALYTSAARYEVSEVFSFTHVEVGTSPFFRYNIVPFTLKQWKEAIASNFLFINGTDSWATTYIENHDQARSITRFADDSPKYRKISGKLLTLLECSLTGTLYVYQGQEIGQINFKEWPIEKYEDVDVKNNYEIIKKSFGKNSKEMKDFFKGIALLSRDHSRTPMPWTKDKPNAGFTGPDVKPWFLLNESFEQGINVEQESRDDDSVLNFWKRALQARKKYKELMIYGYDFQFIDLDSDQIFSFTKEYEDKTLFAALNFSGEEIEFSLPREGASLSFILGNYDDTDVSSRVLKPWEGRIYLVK

COC(=O)C1C(OC(=O)c2ccccc2)CC2CCC1N2S(=O)(=O)C(F)(F)F (stereo not drawn)
Ki (dopamine transporter; binding): 330 nM

O=C(NCc1cc(Br)cc(Br)c1OC(=O)c1ccccc1[N+](=O)[O-])c1ccccc1Cl
EC50 (lasR; reporter gene, agonist, rsaL-yfp reporter; PAO-MW1): 14 nM

CC[C@H](C)[C@H](NC(=O)[C@H](CCCNC(=N)N)NC(=O)[C@@H]1CCCN1C(=O)[C@H](CCCNC(=N)N)NC(=O)[C@H](Cc1ccccc1)NC(=O)[C@H](Cc1c[nH]cn1)NC(=O)[C@H](CCCNC(=N)N)NC(=O)[C@H](CC(C)C)NC(=O)[C@H](CCCCN)NC(=O)CNC(=O)[C@H](CC(C)C)NC(=O)[C@H](Cc1ccccc1)NC(=O)[C@H](CCCNC(=N)N)NC(=O)CNC(=O)[C@H](Cc1ccccc1)NC(=O)[C@H](CCCNC(=N)N)NC(=O)CNC(=O)[C@H](CCCNC(=N)N)NC(=O)[C@H](CCC(N)=O)NC(=O)[C@@H](NC(=O)[C@@H](N)CC(C)C)[C@@H](C)CC)C(=O)N[C@@H](CCCCN)C(=O)N[C@@H](Cc1ccccc1)C(=O)N[C@@H](CCCCN)C(=O)NCC(=O)N[C@@H](CCCCN)C(=O)N[C@@H](C)C(=O)NCC(=O)N[C@@H](Cc1c[nH]c2ccccc12)C(=O)N[C@H](C(=O)N[C@H](C(=O)NCC(=O)O)C(C)C)[C@@H](C)O
MIC (Staphylococcus aureus): 64 µM (≈ 242 µg/mL)

COc1ccc(/C=C/C(=O)NCCc2c[nH]c3ccccc23)cc1OC
IC50 (Cholinesterase (BCHE, Homo sapiens, UniProt P06276)): > 100000 nM

O=C(CCc1ccc(C(F)(F)F)cc1)N[C@H]1CCOC1=O
EC50 (lasR; reporter gene, agonist, lasI-lacZ reporter): 10000 nM

O=C1NC(=O)C(=Cc2ccc(OCc3cn(Cc4ccccc4Cl)nn3)cc2)C(=O)N1
IC50 (tyrosinase; inhibitor): 29900 nM

OC[C@@]12C[C@@H]1[C@@H](n1cnc3c(N[C@H](C4CCC4)C4CC4)nc(Cl)nc31)[C@H](O)[C@@H]2O
Ki (ADORA1 (Homo sapiens, UniProt P30542); binding; together with: [3H]R-PIA): 298 ± 4 nM

O=[N+]([O-])c1cccc(/C(Cn2nnc3ccccc32)=N\N=C\c2cc(Cl)cc(Cl)c2O)c1
IC50 (MAL12 (Saccharomyces cerevisiae S288c, UniProt P53341); inhibition): 1100 ± 50 nM

Nc1ncnc2c1ncn2[C@@H]1O[C@H](COS(=O)(=O)NC(=O)CCC(=O)c2ccccc2C(=O)O)[C@@H](O)[C@H]1O
IC50 (2-succinylbenzoate--CoA ligase (menE, Escherichia coli, UniProt P37353); enzyme activity): 25 nM

COC(=O)C1C(OC(=O)c2ccccc2)CC2CCC1N2S(=O)(=O)N=C=O (stereo not drawn)
Ki (dopamine transporter; binding): 120 nM

CC[C@H](C)[C@H](NC(=O)[C@H](CCCNC(=N)N)NC(=O)[C@@H](NC(=O)[C@@H]1CCCN1C(=O)[C@H](CCCNC(=N)N)NC(=O)[C@@H](NC(=O)[C@@H]1CCCN1C(=O)[C@H](CC(C)C)NC(=O)[C@H](CC(C)C)NC(=O)CNC(=O)[C@H](Cc1c[nH]cn1)NC(=O)[C@@H]1CCCN1C(=O)CNC(=O)[C@H](Cc1ccccc1)NC(=O)[C@H](CC(=O)O)NC(=O)[C@H](Cc1c[nH]c2ccccc12)NC(=O)[C@H](C)NC(=O)[C@@H](NC(=O)[C@H](C)N)[C@@H](C)O)[C@@H](C)CC)[C@@H](C)CC)C(=O)N[C@@H](CCCNC(=N)N)C(=O)N1CCC[C@H]1C(=O)N[C@@H](CC(C)C)C(=O)N[C@@H](CS)C(=O)NCC(=O)N[C@@H](CCCCN)C(=O)N[C@@H](CC(=O)O)C(=O)O
MIC (Pseudomonas aeruginosa): 32 µM (≈ 92.8 µg/mL)

OC1(c2ccc(Cl)cc2)c2ccccc2C2=NCCN21 (racemic)
Ki (serotonin transporter): 103 nM

Some of these lines once more:
COc1ccc(/C=C/C(=O)NCCc2c[nH]c3ccccc23)cc1OC
IC50 (Cholinesterase (BCHE, Homo sapiens, UniProt P06276)): > 100000 nM
